Measured values of several laboratories.
Every numbered part comes from another study and shows a few of its results, in no order. Changes are numbered by the printed parent chain.

Sample 1
Target: JUNB, bZIP domain (human)
Technique: DHFR protein complementation
Sample: yeast
Setting: single substitutions, most at no-binding floor
Reference: wild-type JUN-FOS pair
Reading: higher = stronger binding
Parent: JUN, bZIP domain (human); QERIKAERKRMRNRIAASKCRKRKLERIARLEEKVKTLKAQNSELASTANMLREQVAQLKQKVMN; partner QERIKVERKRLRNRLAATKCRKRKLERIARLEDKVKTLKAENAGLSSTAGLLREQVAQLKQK
Variant	binding fitness
L59W	-1.08 natural log
R30E	-0.847 natural log
Q55G	-1.48 natural log
A29N	-1.34 natural log
E44S	-1.23 natural log
E33C	-1.35 natural log
A57Y	-1.32 natural log
N42T	-1.5 natural log

Sample 2
Target: PABPC1L2, full length, GST fusion (mouse, UniProt A0ABA7IW68)
Technique: RNAcompete
Form: RNA
Sample: in vitro
Tested at: 20 nM
Setting: 7-mer, probes averaged, single round
Reference: mean of 7-mers
Reading: higher = stronger binding
Residues (chain): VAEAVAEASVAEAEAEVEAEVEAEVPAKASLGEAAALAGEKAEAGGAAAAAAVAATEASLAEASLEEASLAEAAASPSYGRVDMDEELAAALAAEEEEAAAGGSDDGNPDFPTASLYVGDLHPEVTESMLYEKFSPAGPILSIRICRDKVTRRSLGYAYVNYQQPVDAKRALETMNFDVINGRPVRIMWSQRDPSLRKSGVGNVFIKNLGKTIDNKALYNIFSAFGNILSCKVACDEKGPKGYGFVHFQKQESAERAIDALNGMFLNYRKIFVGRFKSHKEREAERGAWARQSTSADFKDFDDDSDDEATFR
Oligonucleotide	7-mer Z-score
ACUCAAG	-0.132
UAAGCAG	0.00979
UACGUGU	-0.144
CGAUAGG	0.0207
UAAGGUA	0.0315
GAACCUC	-0.246
UUCUCAU	-0.525
UACUGCC	-0.492

Sample 3
Target: Krueppel-like factor 3, full length (KLF3, Homo sapiens, UniProt P57682, residues 1-345)
UniProt P57682, sequence (whole entry, looked up): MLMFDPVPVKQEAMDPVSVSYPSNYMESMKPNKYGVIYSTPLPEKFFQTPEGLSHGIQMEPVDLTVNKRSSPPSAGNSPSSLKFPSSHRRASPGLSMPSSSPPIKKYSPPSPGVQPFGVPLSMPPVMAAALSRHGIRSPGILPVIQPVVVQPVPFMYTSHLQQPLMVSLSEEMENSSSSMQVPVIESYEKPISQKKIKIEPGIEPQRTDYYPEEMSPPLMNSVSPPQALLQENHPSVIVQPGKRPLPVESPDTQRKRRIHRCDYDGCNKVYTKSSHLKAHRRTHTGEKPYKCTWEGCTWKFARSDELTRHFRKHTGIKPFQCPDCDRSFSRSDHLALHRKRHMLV
Technique: protein-binding microarray
Form: hairpin DNA
Sample: in vitro
Tested at: not given
Setting: whole hairpin DNA, median over replicate spots
Reference: not given
Reading: higher = stronger binding
Constant ends, left off below: GAGGCCGA … TCGGCCTCACACTC
Oligonucleotide	median fluorescence [a.u.]
CCGCGCCCAGCCTCCTGGCTGGGCGCGG (5mC at 10 12)	8210
CCACGCCTAGCCTCCTGGCTAGGCGTGG	9130
CCGGGCCCAGCCTCCTGGCTGGGCCCGG	8010
CCGCGCCCAGCCTCCTGGCTGGGCGCGG (5mC at 32)	8850
GCGCGCCCAGCCTCCTGGCTGGGCGCGC	8460
CCTCGCCCAGCCTCCTGGCTGGGCGAGG	8210
CCGCCCCCAGCCTCCTGGCTGGGGGCGG	8760
CCACGCCCCGCCTCCTGGCGGGGCGTGG (5mC at 17)	11600

Mixed results
Compound	organism	read-out	tested at	time	setting	measurement	value
CN1[C@@H]2CC[C@H]1C[C@@H](OC(=O)C(CO)c1ccccc1)C2 (stereo partly shown)	Sarcocystis neurona	parasite growth	10 µM	96 h	first screen	inhibition	-2.2%

For quick reference, copied from above (sample 2):
Oligonucleotide	7-mer Z-score
GAACCUC	-0.246
UUCUCAU	-0.525
